Results from different studies.
± gives the spread as reported.
HDAC1: Histone deacetylase 1 (HDAC1, Homo sapiens, UniProt Q13547)
UniProt Q13547, sequence (whole entry, looked up): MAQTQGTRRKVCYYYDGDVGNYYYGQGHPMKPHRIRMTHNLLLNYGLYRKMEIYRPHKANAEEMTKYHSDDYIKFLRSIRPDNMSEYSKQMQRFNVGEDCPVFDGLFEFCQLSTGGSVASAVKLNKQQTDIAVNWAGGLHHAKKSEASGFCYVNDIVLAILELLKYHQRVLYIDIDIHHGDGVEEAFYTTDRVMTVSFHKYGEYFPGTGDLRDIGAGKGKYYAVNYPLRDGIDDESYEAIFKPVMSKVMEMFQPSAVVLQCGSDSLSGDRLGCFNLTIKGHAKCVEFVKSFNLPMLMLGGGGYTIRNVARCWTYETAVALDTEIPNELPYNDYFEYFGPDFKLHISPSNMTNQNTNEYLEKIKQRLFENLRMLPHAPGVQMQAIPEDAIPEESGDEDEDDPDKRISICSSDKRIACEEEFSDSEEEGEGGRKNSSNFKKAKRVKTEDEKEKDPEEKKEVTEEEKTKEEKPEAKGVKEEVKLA
BCHE: Cholinesterase (BCHE, Equus caballus, UniProt P81908)
UniProt P81908, sequence (whole entry, looked up): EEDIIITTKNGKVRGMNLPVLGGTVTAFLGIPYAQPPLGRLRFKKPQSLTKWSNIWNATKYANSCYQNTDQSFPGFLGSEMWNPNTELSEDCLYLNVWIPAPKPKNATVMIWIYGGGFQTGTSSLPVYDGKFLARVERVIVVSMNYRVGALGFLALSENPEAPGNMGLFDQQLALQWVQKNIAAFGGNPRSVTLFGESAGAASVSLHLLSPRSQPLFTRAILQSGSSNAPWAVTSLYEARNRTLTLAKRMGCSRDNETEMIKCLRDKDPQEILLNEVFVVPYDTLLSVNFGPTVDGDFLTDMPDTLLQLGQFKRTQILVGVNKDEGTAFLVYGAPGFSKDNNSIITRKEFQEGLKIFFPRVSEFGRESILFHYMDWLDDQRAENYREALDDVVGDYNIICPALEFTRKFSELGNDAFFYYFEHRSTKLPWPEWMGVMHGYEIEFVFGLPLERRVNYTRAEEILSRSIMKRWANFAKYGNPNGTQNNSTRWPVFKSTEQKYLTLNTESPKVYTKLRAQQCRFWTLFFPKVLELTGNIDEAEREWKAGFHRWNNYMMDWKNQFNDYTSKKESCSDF
HTR2C: 5-hydroxytryptamine receptor 2C (HTR2C, Homo sapiens, UniProt P28335)
UniProt P28335, sequence (whole entry, looked up): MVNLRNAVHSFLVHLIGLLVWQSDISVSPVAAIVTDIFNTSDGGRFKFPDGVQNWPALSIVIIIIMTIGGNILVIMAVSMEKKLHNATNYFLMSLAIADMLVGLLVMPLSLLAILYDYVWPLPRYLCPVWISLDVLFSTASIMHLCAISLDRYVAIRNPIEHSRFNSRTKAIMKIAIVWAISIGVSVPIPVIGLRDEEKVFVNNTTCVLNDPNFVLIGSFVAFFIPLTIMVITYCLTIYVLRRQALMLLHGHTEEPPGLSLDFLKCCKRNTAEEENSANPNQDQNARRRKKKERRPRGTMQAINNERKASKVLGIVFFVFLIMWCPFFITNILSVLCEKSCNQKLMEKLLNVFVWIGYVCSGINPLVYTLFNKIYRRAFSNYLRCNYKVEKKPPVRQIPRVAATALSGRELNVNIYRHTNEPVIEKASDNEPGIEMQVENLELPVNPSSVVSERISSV
ADRA2C: Alpha-2C adrenergic receptor (ADRA2C, Homo sapiens, UniProt P18825)
UniProt P18825, sequence (whole entry, looked up): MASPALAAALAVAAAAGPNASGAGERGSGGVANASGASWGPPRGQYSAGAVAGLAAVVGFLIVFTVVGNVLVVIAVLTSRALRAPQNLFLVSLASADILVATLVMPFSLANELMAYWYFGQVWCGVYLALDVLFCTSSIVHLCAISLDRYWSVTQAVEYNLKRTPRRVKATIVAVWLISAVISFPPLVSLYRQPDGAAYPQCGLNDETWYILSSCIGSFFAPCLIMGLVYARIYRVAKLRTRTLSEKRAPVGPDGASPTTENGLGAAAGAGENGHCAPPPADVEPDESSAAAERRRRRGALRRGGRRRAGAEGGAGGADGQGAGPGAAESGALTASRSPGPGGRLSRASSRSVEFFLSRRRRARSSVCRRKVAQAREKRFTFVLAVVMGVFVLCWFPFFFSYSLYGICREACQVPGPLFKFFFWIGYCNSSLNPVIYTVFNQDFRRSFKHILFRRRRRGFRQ
lacZ: Beta-galactosidase (lacZ, Escherichia coli K-12, UniProt P00722)
UniProt P00722, sequence (whole entry, looked up): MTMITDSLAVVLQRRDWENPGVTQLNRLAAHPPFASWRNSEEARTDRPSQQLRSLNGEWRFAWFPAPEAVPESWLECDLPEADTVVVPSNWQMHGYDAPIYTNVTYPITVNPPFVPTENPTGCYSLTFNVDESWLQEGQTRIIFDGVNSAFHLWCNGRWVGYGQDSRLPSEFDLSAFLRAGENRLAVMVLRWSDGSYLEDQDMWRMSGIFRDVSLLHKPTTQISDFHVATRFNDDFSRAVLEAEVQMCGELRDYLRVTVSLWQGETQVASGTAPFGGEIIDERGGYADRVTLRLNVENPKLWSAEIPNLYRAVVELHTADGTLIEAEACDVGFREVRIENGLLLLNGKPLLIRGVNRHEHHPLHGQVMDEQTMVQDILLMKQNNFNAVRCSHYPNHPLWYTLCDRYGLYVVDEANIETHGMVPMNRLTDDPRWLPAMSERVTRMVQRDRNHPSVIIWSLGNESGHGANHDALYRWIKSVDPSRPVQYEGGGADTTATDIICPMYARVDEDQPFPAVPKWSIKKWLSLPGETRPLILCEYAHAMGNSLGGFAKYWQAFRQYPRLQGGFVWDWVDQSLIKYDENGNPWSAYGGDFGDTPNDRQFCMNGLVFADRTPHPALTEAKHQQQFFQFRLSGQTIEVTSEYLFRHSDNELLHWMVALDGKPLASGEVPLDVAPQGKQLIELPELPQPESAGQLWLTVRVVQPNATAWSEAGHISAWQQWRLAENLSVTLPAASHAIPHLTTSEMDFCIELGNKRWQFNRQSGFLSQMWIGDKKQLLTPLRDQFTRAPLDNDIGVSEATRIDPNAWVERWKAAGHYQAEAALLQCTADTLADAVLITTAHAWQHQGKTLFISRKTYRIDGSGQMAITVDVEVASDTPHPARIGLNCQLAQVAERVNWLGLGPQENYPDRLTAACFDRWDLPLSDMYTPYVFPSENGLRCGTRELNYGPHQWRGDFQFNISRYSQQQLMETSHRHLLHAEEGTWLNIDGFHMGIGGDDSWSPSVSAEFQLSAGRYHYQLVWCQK
ACHE: Acetylcholinesterase (ACHE, Homo sapiens, UniProt P22303)
UniProt P22303, sequence (whole entry, looked up): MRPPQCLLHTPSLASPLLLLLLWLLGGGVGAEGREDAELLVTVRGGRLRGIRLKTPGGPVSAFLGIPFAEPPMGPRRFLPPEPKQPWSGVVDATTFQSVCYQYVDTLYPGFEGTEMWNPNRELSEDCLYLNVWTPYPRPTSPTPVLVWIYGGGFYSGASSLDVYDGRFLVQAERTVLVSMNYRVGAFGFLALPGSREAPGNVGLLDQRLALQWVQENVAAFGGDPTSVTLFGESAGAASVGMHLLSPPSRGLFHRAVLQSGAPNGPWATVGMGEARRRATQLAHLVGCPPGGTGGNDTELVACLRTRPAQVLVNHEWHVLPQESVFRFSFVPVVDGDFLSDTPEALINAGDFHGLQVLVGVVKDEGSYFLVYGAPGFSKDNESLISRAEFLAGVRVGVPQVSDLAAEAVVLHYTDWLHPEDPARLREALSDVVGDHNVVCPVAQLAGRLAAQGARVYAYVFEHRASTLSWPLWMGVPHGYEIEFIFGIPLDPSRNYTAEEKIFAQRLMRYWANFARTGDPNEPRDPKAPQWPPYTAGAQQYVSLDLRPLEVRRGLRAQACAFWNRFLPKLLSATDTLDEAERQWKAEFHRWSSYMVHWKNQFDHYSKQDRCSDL
UniProt Q8BYF6, sequence (whole entry, looked up): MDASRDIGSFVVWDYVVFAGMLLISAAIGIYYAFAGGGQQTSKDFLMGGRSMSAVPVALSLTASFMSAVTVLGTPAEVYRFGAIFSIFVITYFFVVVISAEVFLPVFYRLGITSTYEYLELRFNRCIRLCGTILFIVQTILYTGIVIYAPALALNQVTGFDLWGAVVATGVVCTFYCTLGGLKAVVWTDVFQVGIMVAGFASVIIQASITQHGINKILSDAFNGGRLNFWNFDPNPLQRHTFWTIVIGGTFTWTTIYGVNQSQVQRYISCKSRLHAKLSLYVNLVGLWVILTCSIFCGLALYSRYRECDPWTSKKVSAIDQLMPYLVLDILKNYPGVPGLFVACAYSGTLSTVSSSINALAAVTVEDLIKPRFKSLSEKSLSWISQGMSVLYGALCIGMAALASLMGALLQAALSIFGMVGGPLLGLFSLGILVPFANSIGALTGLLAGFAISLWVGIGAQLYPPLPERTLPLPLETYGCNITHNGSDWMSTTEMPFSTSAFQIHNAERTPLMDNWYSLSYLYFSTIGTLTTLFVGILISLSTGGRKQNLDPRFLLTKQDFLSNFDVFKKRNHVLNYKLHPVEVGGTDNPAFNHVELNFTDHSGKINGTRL
UniProt O35678, sequence (whole entry, looked up): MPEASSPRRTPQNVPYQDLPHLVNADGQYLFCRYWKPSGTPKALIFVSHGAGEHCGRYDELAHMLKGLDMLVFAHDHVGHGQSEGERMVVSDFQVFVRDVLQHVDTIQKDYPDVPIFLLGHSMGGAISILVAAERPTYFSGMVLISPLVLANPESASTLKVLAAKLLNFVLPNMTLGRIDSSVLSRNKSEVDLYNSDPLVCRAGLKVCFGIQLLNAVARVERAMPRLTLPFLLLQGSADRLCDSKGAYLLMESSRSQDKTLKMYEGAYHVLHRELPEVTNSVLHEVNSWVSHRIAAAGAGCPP
UniProt P21554, sequence (whole entry, looked up): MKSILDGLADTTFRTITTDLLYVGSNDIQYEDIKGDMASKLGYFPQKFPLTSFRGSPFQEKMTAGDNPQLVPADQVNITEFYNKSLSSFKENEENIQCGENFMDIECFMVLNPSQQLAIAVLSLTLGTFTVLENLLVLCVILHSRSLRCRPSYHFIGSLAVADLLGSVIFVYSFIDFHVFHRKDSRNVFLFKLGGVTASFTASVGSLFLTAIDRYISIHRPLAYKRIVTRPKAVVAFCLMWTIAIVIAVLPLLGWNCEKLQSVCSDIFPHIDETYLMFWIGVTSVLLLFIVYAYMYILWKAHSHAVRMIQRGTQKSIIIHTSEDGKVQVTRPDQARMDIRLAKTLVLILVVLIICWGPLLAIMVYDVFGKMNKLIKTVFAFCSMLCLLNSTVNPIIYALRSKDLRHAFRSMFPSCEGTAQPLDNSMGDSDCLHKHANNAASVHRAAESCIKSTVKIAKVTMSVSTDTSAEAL

Compound	target	assay	test system	conditions	scale	inhibition
O=C(Nc1ccccc1)c1coc(-c2ccccc2O)n1	HDAC1	enzyme activity, inhibitor	–	20 µM	–	> 50%
CSCC[C@H](NC(=O)OCC1c2ccccc2-c2ccccc21)C(=O)O	BCHE	enzyme activity, Ellman method	–	200 µM, 2% methanol	–	≤ 10%
Cc1nc2sccn2c(=O)c1CCN1CCC(=C(c2ccccc2)c2ccc(F)cc2)CC1	HTR2C	agonist response, antagonist	–	10 µM, added: reference agonist at EC90	–	99%
CC1N=C(c2ccccc2F)c2cc(Nc3ccc(C#N)cc3)ccc2NC1=O (centres unmarked)	ADRA2C	ligand displacement, radioligand	–	10 µM	–	47%
O=C(NCc1ccc(-c2ccccc2)cc1)c1coc(-c2ccccc2O)n1	HDAC1	enzyme activity, inhibitor	–	20 µM	–	> 50%
Cc1n[nH]c(C)c1S(=O)(=O)N1CCC(C(=O)N2CCn3c2nc2ccccc23)CC1	lacZ	–	–	concentration not given	–	40%
COC(=O)c1ccc(Nc2ccc3c(c2)C(c2ccccc2F)=NC(C)C(=O)N3)cc1 (centres unmarked)	ADRA2C	ligand displacement, radioligand	–	10 µM	–	65%
O=C([O-])c1c(Cl)c(Cl)c(Cl)c(Cl)c1-c1c2cc(I)c(=O)c(I)c-2oc2c(I)c([O-])c(I)cc12.[Na+].[Na+]	Alpha-methylacyl-CoA racemase (AMACR, Homo sapiens, UniProt Q9UHK6)	enzyme activity, inhibitor, tritiated water release	–	100 µM, 30 min, 37 °C, high-throughput screen, added: [2,3-3H]pristanoyl-CoA	–	≥ 20%
C[C@@H]1CCCC(=O)CCCC(=O)Cc2cc(O)cc(O)c2C(=O)O1	OPRD1 (Homo sapiens, UniProt P41143)	ligand displacement, radioligand	–	10 µM	–	-60.3%
O=C(c1ccc2c(c1)c1ccccc1n2CCN1CCOCC1)c1ccnc2ccccc12	CNR1 (Homo sapiens, UniProt P21554)	forskolin-stimulated cAMP, BRET biosensor	HEK293 expressing human CB1	10 µM	–	~15%
CCN1C(=O)C=CC1=O	Ace (Anopheles gambiae, UniProt Q869C3)	enzyme activity	–	100 µM, 30 min, after 10-fold dilution	–	14 ± 4%
Cc1cccc(Nc2ccc3c(c2)C(c2ccccc2F)=NC(C)C(=O)N3)c1 (centres unmarked)	ADRA2C	ligand displacement, radioligand	–	10 µM	–	69%
O=C(Oc1ccc([N+](=O)[O-])cc1)N1CCC(C(O)(c2ccc3c(c2)OCO3)c2ccc3c(c2)OCO3)CC1	Mgll (Mus musculus, UniProt O35678)	2-AG hydrolysis	mouse, brain membranes	intraperitoneal, 16 mg/kg, 24 h	–	> 80%
O=c1c2ccccc2[se]n1-c1ccccc1	lacZ	–	–	concentration not given	–	40%
CC1N=C(c2ccccc2F)c2cc(Nc3ccc(C(F)(F)F)cc3)ccc2NC1=O (centres unmarked)	ADRA2C	ligand displacement, radioligand	–	10 µM	–	34%
COc1ccc(/C=N/NC(=O)Cn2cnc3c2c(=O)n(C)c(=O)n3C)cc1	ACHE	enzyme activity, inhibitor, Ellman	–	25 µM	–	55.4%
Cc1ccc(/C=C/C(=O)c2ccc(OCc3ccccc3)cc2)cc1	ACHE	enzyme activity, inhibitor	–	concentration not given	–	84.3%
CC1N=C(c2ccccc2F)c2cc(N(C)c3ccccc3)ccc2NC1=O (centres unmarked)	ADRA2C	ligand displacement, radioligand	–	10 µM	–	15%
CCCC1OC(=O)C1CCCCc1ccc2ccccc2c1 (centres unmarked)	PLA2G6 (Homo sapiens, UniProt O60733)	enzyme activity	–	0.091 mole fraction	–	97 to 100%
Cc1cc2c(cc1Cl)N(C(=O)Nc1ccc(Oc3cccnc3C)nc1)CC2	HTR2C	5-HT-stimulated IP-1 formation, antagonist	cells expressing HTR2C	1 µM, added: 5-HT 100 nM	baseline: maximal inhibition	86.5%
Cn1c(=O)c2c(ncn2CC(=O)N/N=C2/C(=O)Nc3ccccc32)n(C)c1=O	ACHE	enzyme activity, inhibitor, Ellman	–	25 µM	–	> 75%
O=C(O)C(=O)CBr	Sodium-coupled monocarboxylate transporter 1 (Slc5a8, Mus musculus, UniProt Q8BYF6)	nicotinate uptake	HRPE expressing Slc5a8	1 mM, 15 min, mouse, added: [14C]nicotinate 15 µM	–	98%
O=[N+]([O-])c1ccc(/N=N/c2ccc3nc(-c4ccccc4)c(I)c(-c4ccccc4)c3c2)cc1	BCHE	enzyme activity, inhibitor	–	100 µM	–	54.8%
CCc1ccccc1Nc1ccc2c(c1)C(c1ccccc1F)=NC(C)C(=O)N2 (centres unmarked)	ADRA2C	ligand displacement, radioligand	–	10 µM	–	-11%
CC(C)(C)c1cnc(CSc2cnc(NC(=O)C3CCNCC3)s2)o1	CDK6 (Homo sapiens, UniProt Q00534)	probe labeling, KiNativ live-cell profiling	MOLT-4	0.25 µM	–	> 50%
CC1N=C(c2ccccc2F)c2cc(N3CCOCC3)ccc2NC1=O (centres unmarked)	ADRA2C	ligand displacement, radioligand	–	10 µM	–	30%
C=C(C)[C@H](CC=C(C)C)Cc1c(O)cc(OC)c2c1O[C@H](c1ccc(O)cc1O)CC2=O	DRD4 (Homo sapiens, UniProt P21917)	–	–	50 µM	–	> 70%
CC1N=C(c2ccccc2F)c2cc(Nc3ccccc3)ccc2NC1=O (centres unmarked)	ADRA2C	ligand displacement, radioligand	–	10 µM	–	84%
Cn1c(=O)c2c(ncn2CC(=O)O)n(C)c1=O	ACHE	enzyme activity, inhibitor, Ellman	–	25 µM	–	6.5%

Excerpt of the above:
Compound	target	assay	test system	conditions	scale	inhibition
Cc1cc2c(cc1Cl)N(C(=O)Nc1ccc(Oc3cccnc3C)nc1)CC2	HTR2C	5-HT-stimulated IP-1 formation, antagonist	cells expressing HTR2C	1 µM, added: 5-HT 100 nM	baseline: maximal inhibition	86.5%
Cn1c(=O)c2c(ncn2CC(=O)N/N=C2/C(=O)Nc3ccccc32)n(C)c1=O	ACHE	enzyme activity, inhibitor, Ellman	–	25 µM	–	> 75%
O=C(O)C(=O)CBr	Sodium-coupled monocarboxylate transporter 1 (Slc5a8, Mus musculus, UniProt Q8BYF6)	nicotinate uptake	HRPE expressing Slc5a8	1 mM, 15 min, mouse, added: [14C]nicotinate 15 µM	–	98%
O=[N+]([O-])c1ccc(/N=N/c2ccc3nc(-c4ccccc4)c(I)c(-c4ccccc4)c3c2)cc1	BCHE	enzyme activity, inhibitor	–	100 µM	–	54.8%
